Assay results from different studies.
Lines come from different studies, so protocols differ. “And” joins repeats or separate records; there may be more than shown. Numbers after ± are the reported error. Values after ≈ are worked out from the molar mass of the structure shown.

Compound = CN(C)CCOC(c1ccc(Cl)cc1)c1ccccn1 (centres unmarked); organism = Ebola virus Zaire; assay = HIV/EBOV pseudovirion entry; test system = A549; setting = 48 h; endpoint = IC50; result = 29.5 ± 8.1 µM
Compound = CCOc1ccc(NC(=O)c2cnn(-c3ccc(C)c(Cl)c3)c2C2CCNCC2)cc1; organism = SARS-CoV-2; assay = cytopathic effect, cell-based CPE; test system = USA_WA1/2020; setting = round 1, 5-point dilution; endpoint = AC50; result = 12.6 µM
Compound = CN(CC1CCOC2(CCN(C(=O)C3(c4ccccc4)CCCC3)CC2)C1)S(C)(=O)=O (centres unmarked); organism = Venezuelan equine encephalitis virus; assay = viral replication; endpoint = EC50; result = 12.6 µM
Compound = O=C(O[C@@H]1Cc2c(O)cc(O)cc2O[C@@H]1c1cc(O)c(O)c(O)c1)c1cc(O)c(O)c(O)c1; organism = Severe acute respiratory syndrome coronavirus 2; assay = cytopathic effect, inhibitor; test system = Vero C1008; setting = 12.5 µM; endpoint = inhibition; result = 0%
Compound = CCN(CCO)CCCC(C)Nc1ccnc2cc(Cl)ccc12 (centres unmarked); organism = SARS-CoV-2 Delta; assay = viral replication; test system = Vero; setting = 48 h; endpoint = IC50; result = 22 µM
Compound = CCN(CC)CCCNC(=O)c1ccc(-c2nc(CN3CCc4ccccc43)c(C)o2)cc1; organism = SARS-CoV-2; assay = cytopathic effect, cell-based CPE; test system = USA_WA1/2020; endpoint = AC50; result = 14.1 µM
Compound = Cc1cnc(C(=O)N2CCCC(C(=O)Nc3ccc(-c4cccc(F)c4)cc3)C2)cn1 (centres unmarked); organism = Lassa mammarenavirus; assay = viral replication; test system = Huh-7; setting = 10 µM, 72 h; endpoint = remaining activity; result = 39%
Compound = O=C(O)COCCN1CCN(C(c2ccccc2)c2ccc(Cl)cc2)CC1 (centres unmarked); organism = Marburg virus; assay = pseudovirus entry; test system = A549; how to read = relative to: CC50 over IC50; endpoint = selectivity index; result = 1
Compound = O=C(Nc1nc(-c2ccccn2)cs1)c1ccc(F)cc1; organism = Mycobacterium tuberculosis; assay = microbial growth, broth dilution; test system = H37RV; endpoint = MIC; result = 0.098 to 0.19 µM (≈ 0.0293 to 0.0569 µg/mL)
Compound = Nc1ncnc2c1ncn2[C@@H]1O[C@@H]2COP(=O)(O)O[C@H]3[C@@H](O)[C@H](n4cnc5c(=O)[nH]cnc54)O[C@@H]3COP(=O)(O)O[C@H]2[C@H]1O; organism = Chikungunya virus; assay = upregulated Reactome pathway, RNA sequencing, item: Chromatin modifying enzymes (R-HSA-3247509); test system = HFF-1; how to read = relative to: CHIKV-infected untreated; endpoint = fold enrichment; result = 2.41
Compound = COc1ccc(C[C@@H]2c3cc(Oc4cc(C[C@@H]5c6cc(O)c(OC)cc6CCN5C)ccc4O)c(OC)cc3CCN2C)cc1; organism = SARS-CoV-2; assay = viral replication; test system = Vero E6; setting = 6.25 µM; how to read = relative to: mean of replicates; endpoint = CPE inhibition; result = 0%
Compound = CNC1CC(c2ccc(Cl)c(Cl)c2)c2ccccc21 (centres unmarked); organism = SARS-CoV-2; assay = viral replication, GFP plate reader screen; setting = cell-based; endpoint = EC50; result = 8.32 µM
Compound = COc1ccc(C(=O)Nc2ccc(N3CCN(C(=O)c4cnccn4)CC3)nc2)cc1; organism = Mycobacterium tuberculosis; assay = bacterial growth; test system = H37Ra-lux; setting = 168 h; endpoint = IC90; result = > 64 µM
Compound = Nc1ncnc2c([C@@H]3N[C@H](CO)[C@@H](O)[C@H]3O)c[nH]c12; organism = Sudan ebolavirus; assay = viral replication; test system = HeLa, Boniface; setting = 0.8 µM; endpoint = inhibition; result = 14.1%
Compound = COC(=O)C1=C(C)NC(C)=C(C(=O)OC2CCCN(Cc3ccccc3)C2)C1c1cccc([N+](=O)[O-])c1 (centres unmarked); organism = SARS-CoV-2; assay = viral replication, GFP plate reader screen; setting = cell-based; endpoint = EC50; result = > 100 µM
Compound = COCc1c(-c2nc(CCc3ccccc3)n[nH]2)noc1C; organism = Lassa mammarenavirus; assay = viral replication; test system = Huh-7; setting = 10 µM, 72 h; endpoint = remaining activity; result = 37%
Compound = O=C(N1CCC2(CC1)CC(CNS(=O)(=O)c1ccccc1)CCO2)C1(c2ccccc2)CCCC1 (centres unmarked); organism = Venezuelan equine encephalitis virus; assay = viral replication; endpoint = EC50; result = > 39.8 µM
Compound = Oc1ccccc1-c1nc(-c2cccs2)c(-c2cccs2)[nH]1; organism = SARS-CoV-2; assay = cytopathic effect; test system = USA_WA1/2020; setting = round 1, 5-point; endpoint = efficacy; result = 52.7%
Compound = O=C(Nc1ccc(N2CCCN(C(=O)c3cnccn3)CC2)nc1)c1ccccc1I; organism = Mycobacterium tuberculosis; assay = bacterial growth; test system = H37Ra-lux; setting = 168 h; endpoint = IC90; result = > 64 µM
Compound = Cc1cccn2c(=O)c3cc(C(=O)Nc4ccc(N(C)C)cc4)n(C)c3nc12; organism = Severe acute respiratory syndrome coronavirus 2; assay = viral replication, inhibitor, qPCR; test system = Vero C1008; endpoint = EC90; result = 3.8 µM
Compound = COc1ccc(CCNC(=O)c2cc(Nc3ccccc3)nc3ccccc23)cc1OC; organism = SARS-CoV-2; assay = cytopathic effect; test system = USA_WA1/2020; setting = round 1, 5-point; endpoint = efficacy; result = 52.1%
Compound = CCc1nc(C)c(C(=O)N(CC2COc3ccccc3O2)C(C)C)o1 (centres unmarked); organism = Lassa mammarenavirus; assay = viral replication; test system = Huh-7; setting = 10 µM, 72 h; endpoint = remaining activity; result = 59%
Compound = CCc1c(C(=O)C(N)=O)c2c(OCC(=O)O)cccc2n1Cc1ccccc1; organism = Daboia russelii; test system = mouse; setting = intravenous, 120 µg, up to 24 h, given 0 min after venom, with: central venom intraperitoneal; endpoint = time of death; result = > 24 h and 22.4 h
Compound = CN1CCC(=C2c3ccccc3Oc3ccc(Cl)cc32)CC1; organism = SARS-CoV-2; assay = viral replication, high-content imaging screen; setting = cell-based; endpoint = EC50; result = > 100 µM
Compound = CCCCN(CCCNC(=O)c1cc(Nc2ccc(OC)c(OC)c2)nc2ccccc12)Cc1ccccc1; organism = SARS-CoV-2; assay = cytopathic effect; test system = USA_WA1/2020; setting = round 2, 5-point; endpoint = maximum response; result = 60%
Compound = OCCOCCN1CCN(C(c2ccccc2)c2ccc(Cl)cc2)CC1 (centres unmarked); organism = Ebola virus Zaire; assay = HIV/EBOV pseudovirion entry; test system = A549; setting = 48 h; endpoint = IC50; result = 3.4 ± 2.2 µM
Compound = COc1cc(/C=C/C(=O)CC(=O)/C=C/c2ccc(O)c(OC)c2)ccc1O; organism = SARS-CoV-2; assay = viral replication, GFP plate reader screen; setting = cell-based; endpoint = EC50; result = > 100 µM
Compound = Cc1nc2n(n1)CC(=O)N[C@@H](C(C)C)CN(Cc1cccc(O)c1)CC(=O)N[C@@H](CC(C)C)c1nc(cs1)C(=O)N[C@H]2Cc1ccccc1; organism = Lassa mammarenavirus; assay = viral replication; test system = Huh-7; setting = 10 µM, 72 h; endpoint = remaining activity; result = 90%
Compound = Cn1c(=O)ccc2ccc(F)c(CCNC[C@H]3CN(c4cnc5c(n4)NC(=O)CO5)C(=O)O3)c21; organism = Francisella tularensis; endpoint = MIC90; result = < 0.015 µg/mL
Compound = Cc1ccc(C(=O)N2CC(=O)N[C@@H](CC(C)C)c3nc(cs3)C(=O)N[C@@H](Cc3ccccc3)c3nc(C)nn3CC(=O)N[C@@H](C(C)C)C2)cc1; organism = Lassa mammarenavirus; assay = viral replication; test system = Huh-7; setting = 10 µM, 72 h; endpoint = remaining activity; result = 92%
Compound = O=C1c2c(O)c(=O)ccn2N([C@@H]2c3ccccc3SCc3c2ccc(F)c3F)[C@@H]2COCCN12; organism = Influenza A virus H5N1; assay = viral replication, plaque reduction; test system = A/duck/Bangladesh/27892/2015; endpoint = EC50; result = 0.00026 ± 2e-05 µM
Compound = O=C(NCc1cccs1)C1CCCN(Cc2cccc(-c3ccc(F)cc3F)c2)C1 (centres unmarked); organism = SARS-CoV-2; assay = cytopathic effect; test system = USA_WA1/2020; setting = round 1, 5-point; endpoint = maximum response; result = 72.7%
Compound = CN(C)CCCn1cc(-c2ccccc2)c(-c2ccccc2)n1; organism = SARS-CoV-2; assay = viral replication, high-content imaging screen; setting = cell-based; endpoint = EC50; result = > 100 µM
Compound = CC(C)(C)NCc1ccc(Nc2ccnc3cc(Cl)ccc23)cc1O; organism = SARS-CoV-2; assay = cytopathic effect, cell-based CPE; test system = USA_WA1/2020; endpoint = AC50; result = 14.1 µM
Compound = Cc1nc(C(=O)NCCn2ncc3ccccc3c2=O)cs1; organism = Lassa mammarenavirus; assay = viral replication; test system = Huh-7; setting = 10 µM, 72 h; endpoint = remaining activity; result = 14%
Compound = CC(C)=CCc1c(O)ccc(C(=O)/C=C/c2ccc(O)cc2)c1O; organism = Severe acute respiratory syndrome coronavirus 2; assay = cytopathic effect; test system = Vero C1008; setting = 0.7812 µM; endpoint = inhibition; result = 0%
Compound = O=C1NCCCOc2cccc(c2)C2c3ccc(cc3CCN2Cc2ncc[nH]2)Oc2ccc(O)c1c2 (centres unmarked); organism = Lassa mammarenavirus; assay = viral replication; test system = Huh-7; setting = 10 µM, 72 h; endpoint = remaining activity; result = 52%
Compound = O=C(CC1CCCCC1)Nc1ncc(Cc2ccccc2)s1; organism = Histoplasma capsulatum; assay = microbial growth; endpoint = MIC; result = 1.3 to 2.5 µM (≈ 0.409 to 0.786 µg/mL)
Compound = CN(C)CCOC1=Cc2ccccc2Sc2ccc(Cl)cc21; organism = SARS-CoV-2; assay = viral replication, high-content imaging screen; setting = cell-based; endpoint = EC50; result = > 100 µM
Compound = CNC(=O)[C@@H](NC(=O)[C@H](CC(C)C)[C@H](O)C(=O)NO)C(C)(C)C; organism = Daboia russelii; test system = C2C12; setting = 100 µM, with: Daboia russelii venom KA; how to read = relative to: venom alone; endpoint = viability difference; result = -65.2%
Compound = CN1CCN(CCCN2c3ccccc3Sc3ccc(C(F)(F)F)cc32)CC1; organism = SARS-CoV-2; assay = viral replication, high-content imaging screen; setting = cell-based; endpoint = EC50; result = > 100 µM
Compound = Cn1ccnc1-c1ccc(N2CCCC(CO)(Cc3ccccc3F)C2)nn1 (centres unmarked); organism = Lassa mammarenavirus; assay = viral replication; test system = Huh-7; setting = 10 µM, 72 h; endpoint = remaining activity; result = 42%
Compound = COc1cc2c(OCCCC#N)c3c(c(-c4ccc5c(c4)OCO5)c2cc1OC)C(=O)OC3; organism = VSV pseudotyped with Ebola virus GP; assay = viral entry, item: GFP; test system = HeLa; endpoint = IC50; result = 0.0931 ± 0.0268 µM
Compound = O=C(Nc1ncc(-c2ccccc2)s1)C1CCCC1; organism = Histoplasma capsulatum; assay = microbial growth; endpoint = MIC; result = > 20 µM
Compound = CC1c2ccccc2C(CCCN(C)C)c2cc(C(F)(F)F)ccc21 (centres unmarked); organism = SARS-CoV-2; assay = viral replication, GFP plate reader screen; test system = BetaCov/Belgium/GHB-03021/2020; setting = cell-based; endpoint = EC50; result = > 100 µM
Compound = CC1CCCCN1CCCNC(=O)c1cc(Sc2cccc(Cl)c2)nc2ccccc12 (centres unmarked); organism = SARS-CoV-2; assay = cytopathic effect, cell-based CPE; test system = USA_WA1/2020; setting = round 2, 5-point dilution; endpoint = maximal response; result = 98%
Compound = O=C(CC1CCCCC1)Nc1ncc(Cc2ccc3ccccc3c2)s1; organism = Histoplasma capsulatum; assay = microbial growth; endpoint = MIC; result = 20 µM (≈ 7.29 µg/mL)

Excerpt of the above:
Compound = CNC(=O)[C@@H](NC(=O)[C@H](CC(C)C)[C@H](O)C(=O)NO)C(C)(C)C; organism = Daboia russelii; test system = C2C12; setting = 100 µM, with: Daboia russelii venom KA; how to read = relative to: venom alone; endpoint = viability difference; result = -65.2%
Compound = CN1CCN(CCCN2c3ccccc3Sc3ccc(C(F)(F)F)cc32)CC1; organism = SARS-CoV-2; assay = viral replication, high-content imaging screen; setting = cell-based; endpoint = EC50; result = > 100 µM
Compound = Cn1ccnc1-c1ccc(N2CCCC(CO)(Cc3ccccc3F)C2)nn1 (centres unmarked); organism = Lassa mammarenavirus; assay = viral replication; test system = Huh-7; setting = 10 µM, 72 h; endpoint = remaining activity; result = 42%
Compound = COc1cc2c(OCCCC#N)c3c(c(-c4ccc5c(c4)OCO5)c2cc1OC)C(=O)OC3; organism = VSV pseudotyped with Ebola virus GP; assay = viral entry, item: GFP; test system = HeLa; endpoint = IC50; result = 0.0931 ± 0.0268 µM
Compound = O=C(Nc1ncc(-c2ccccc2)s1)C1CCCC1; organism = Histoplasma capsulatum; assay = microbial growth; endpoint = MIC; result = > 20 µM
Compound = CC1c2ccccc2C(CCCN(C)C)c2cc(C(F)(F)F)ccc21 (centres unmarked); organism = SARS-CoV-2; assay = viral replication, GFP plate reader screen; test system = BetaCov/Belgium/GHB-03021/2020; setting = cell-based; endpoint = EC50; result = > 100 µM
Compound = CC1CCCCN1CCCNC(=O)c1cc(Sc2cccc(Cl)c2)nc2ccccc12 (centres unmarked); organism = SARS-CoV-2; assay = cytopathic effect, cell-based CPE; test system = USA_WA1/2020; setting = round 2, 5-point dilution; endpoint = maximal response; result = 98%
Compound = O=C(CC1CCCCC1)Nc1ncc(Cc2ccc3ccccc3c2)s1; organism = Histoplasma capsulatum; assay = microbial growth; endpoint = MIC; result = 20 µM (≈ 7.29 µg/mL)
